Measured values pooled from the literature.
Each numbered part is a random draw from the data of one study; scales do not carry over between parts.
UniProt Q92985, sequence (whole entry, unmodified, looked up): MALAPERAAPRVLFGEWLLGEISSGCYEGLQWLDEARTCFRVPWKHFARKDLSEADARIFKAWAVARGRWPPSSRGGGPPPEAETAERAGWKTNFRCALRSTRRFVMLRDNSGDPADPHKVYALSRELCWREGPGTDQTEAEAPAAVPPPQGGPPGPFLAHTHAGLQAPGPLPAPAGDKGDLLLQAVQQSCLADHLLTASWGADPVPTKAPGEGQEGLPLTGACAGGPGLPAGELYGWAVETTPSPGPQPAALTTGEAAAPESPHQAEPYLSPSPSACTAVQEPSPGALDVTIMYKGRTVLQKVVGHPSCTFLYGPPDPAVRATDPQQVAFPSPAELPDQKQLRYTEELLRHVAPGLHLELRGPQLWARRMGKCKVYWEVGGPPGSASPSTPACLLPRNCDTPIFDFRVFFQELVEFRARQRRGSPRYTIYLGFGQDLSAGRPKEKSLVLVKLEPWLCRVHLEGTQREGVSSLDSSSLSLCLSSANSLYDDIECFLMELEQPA

Sample 1 — method: aptamer microarray, sandwich; form: DNA with 2'F-ANA; sample: in vitro; tested at: 200 nM; with: Cy3 exosite-II aptamer, 400 nM; reading: higher = stronger binding
Target: Prothrombin, mature alpha-thrombin (F2, Homo sapiens, UniProt P00734)
Notes: whole 15-mer aptamer, many near background
Oligonucleotide	mean fluorescence intensity
GGTTGGTGTGGTTGG (2'F-ANA at 1 2 6 8 9 12 14)	65.5 a.u.
GGTTGGTGTGGTTGG (2'F-ANA at 1 2 4 7 9 10 11 12 13)	57.2 a.u.
GGTTGGTGTGGTTGG (2'F-ANA at 2 3 6 7 8 9 10 13)	305 a.u.

Mixed results
KAT6A winged helix 1, GST fusion: Histone acetyltransferase KAT6A, winged helix 1, GST fusion (KAT6A, Homo sapiens, UniProt Q92794, residues 1-85)
Substance	target	test	system	conditions	how to read	endpoint	result
GCAAGACA	Sal-like protein 4, full length isoform A (SALL4, Homo sapiens, UniProt Q9UJQ4, residues 1-1053)	universal PBM	double-stranded DNA, one strand shown, in vitro	600 nM, 8-mer, flanks averaged, mean of replicates	higher = stronger binding	E-score	0.0602
GCCTAGCACTTAGAATTGAGACTGGATTAGTGCTAGGTCTTGATTCGCTTGACGCTGCTG	Interferon regulatory factor 7, full length, phosphomimetic (IRF7, Homo sapiens, UniProt Q92985, residues 1-503, S471D/S472D/S475D/S476D/S477D/S483D/S484D/S487D)	protein-binding microarray	double-stranded DNA, one strand shown, in vitro	2200 nM top, 60-bp whole probe, with: salmon DNA 0.4 mg/ml	reference: random background probes, higher = stronger binding	fitted relative affinity	-0.926 z-score
GCATACAA	KAT6A winged helix 1, GST fusion	protein binding microarray	double-stranded DNA, one strand shown, in vitro	not given, 8-mer, flanks averaged, mean of 2 arrays, mostly near background	reference: not given, higher = stronger binding	E-score	-0.0933
PhoQ, residues 284 288 289 292 302 303 TSTLRA	PhoP, residues 12 14 15 18 19 NYFRM (Escherichia coli, UniProt P23836)	Sort-seq, refers to: YFP reporter	E. coli	PhoQ-PhoP variant library, with: 10 µM Mg2+	reference: high Mg2+ state, higher = stronger signaling	fold induction	11.5
AAATTCAT	Sal-like protein 4, full length isoform B (SALL4, Homo sapiens, UniProt Q9UJQ4-2, residues 1-616)	universal PBM	double-stranded DNA, one strand shown, in vitro	not given, 8-mer, flanks averaged, mean of replicates	higher = stronger binding	E-score	0.315
GATCCATA	KAT6A winged helix 1, GST fusion	protein binding microarray	double-stranded DNA, one strand shown, in vitro	not given, 8-mer, flanks averaged, mean of 2 arrays, mostly near background	reference: not given, higher = stronger binding	E-score	0.0439

Excerpt of the above (mixed results):
Substance	target	test	system	conditions	how to read	endpoint	result
GCATACAA	KAT6A winged helix 1, GST fusion	protein binding microarray	double-stranded DNA, one strand shown, in vitro	not given, 8-mer, flanks averaged, mean of 2 arrays, mostly near background	reference: not given, higher = stronger binding	E-score	-0.0933
